{"data": "Experimental data collected from several papers", "note": "Each line is one published result; not all experiments were run side by side. Values joined by “and” are separate records of one study, mostly repeats; a detail may differ. Numbers after ± are the reported error."}
{"SMILES": "O=C(Nc1cc(OCCN2CCCC2)c2ccccc2n1)c1cc(Cl)cc(C(=O)Nc2cc(OCCN3CCCC3)c3ccccc3n2)n1", "cell line": "U2OS", "test": "cell viability, CellTiter-Glo", "setting": "72 h", "scale": "baseline: IC50 U2OS over WI-38", "endpoint": "selectivity ratio", "result": 6}
{"SMILES": "N#CC1=C(N)n2c(s/c(=C\\c3cccs3)c2=O)=C(C#N)C1c1cccs1 (centres unmarked)", "cell line": "C127 LDR GFP reporter cells", "test": "silenced GFP reporter induction, activator, high-content imaging", "setting": "retest, two-run mean", "endpoint": "efficacy", "result": "24%"}
{"SMILES": "CC/C(=N\\NC(=O)NCc1cccc(O)c1)c1ccc(O)c(C)c1O", "cell line": "SK-OV-3", "test": "Western blot, item: TAZ", "setting": "10 µM, 1 h, 2D culture, unit not given", "scale": "baseline: β-actin", "endpoint": "protein level", "result": "1.33 ± 0.4"}
{"SMILES": "C=C1C(=O)O[C@H]2[C@H]1CC/C(C)=C/CC[C@@]1(C)O[C@@H]21", "cell line": "human iPSC-derived cardiomyocytes", "test": "MyBP-C/MYH ratio, plate-normalised SD score", "setting": "concentration not given, primary screen", "scale": "direction not given", "endpoint": "activity score", "result": 8.5}
{"SMILES": "Cc1cc(Nc2ncc(Cl)c(Nc3ccccc3S(=O)(=O)C(C)C)n2)c(OC(C)C)cc1C1CCNCC1", "cell line": "CLB-BAR", "test": "phosphoproteomics LC-MS/MS, item: RLTPR phosphorylation", "setting": "200 nM, 60 min", "scale": "baseline: untreated", "endpoint": "log2 fold change", "result": -1.83}
{"SMILES": "CCN(CC)CCNC(=O)c1cc(Br)c(N)cc1OC", "cell line": "human iPSC-derived cardiomyocytes", "test": "MyBP-C/MYH ratio, plate-normalised SD score", "setting": "concentration not given, primary screen", "scale": "direction not given", "endpoint": "activity score", "result": 3.7}
{"SMILES": "CCCCN1C[C@H](O)[C@@H](O)[C@@H](O)[C@H]1CO", "cell line": "sample BB patient fibroblasts", "test": "acidic compartment staining, LysoTracker Red imaging", "setting": "216 h", "endpoint": "IC50", "result": "26.2 µM"}
{"SMILES": "O=c1[nH]nc(OCCCc2ccc(Cl)cc2)c(NCc2cccnc2)c1Br", "cell line": "HEK293T", "test": "RNA-seq, item: HSP90AA1 mRNA", "setting": "10 µM, 6 h", "scale": "baseline: vehicle", "endpoint": "log2 fold change", "result": -0.145}
{"SMILES": "CC(=O)c1nn(-c2ccc(Cl)cc2)/c(=N/N=C(\\C)c2ccc(NC(=O)c3ccccc3)cc2)s1", "cell line": "HepG2", "setting": "0.078 µM", "endpoint": "toxicity", "result": "0.409% and 9.95%"}
{"SMILES": "CC(C)=CCc1c2c(c3occ(-c4ccc(O)c(O)c4)c(=O)c3c1O)C=CC(C)(C)O2", "cell line": "human iPSC-derived cardiomyocytes", "test": "MyBP-C/MYH ratio, plate-normalised SD score", "setting": "concentration not given, primary screen", "scale": "direction not given", "endpoint": "activity score", "result": 9.4}
{"SMILES": "Nc1ncnc2c1ncn2[C@@H]1O[C@H](CO)[C@@H](O)[C@H]1O", "cell line": "HEK293, empty vector", "test": "calcium mobilization", "endpoint": "EC50", "result": "1.09 µM"}
{"SMILES": "CCn1cc(-c2cc(Cn3ccnc3)cc3c2CCN([C@H](c2cc(OC)ccn2)C2CC2)C3=O)c(C(F)(F)F)n1", "cell line": "SNU478", "test": "cell growth", "setting": "120 h", "endpoint": "EC50", "result": "> 30 µM"}
{"SMILES": "CC1(C)CCC(CN2CCN(c3ccc(C(=O)NS(=O)(=O)c4ccc(NCC5CCOCC5)c([N+](=O)[O-])c4)c(Oc4cnc5[nH]ccc5c4)c3)CC2)=C(c2ccc(Cl)cc2)C1", "cell line": "K562", "test": "annexin V/PI flow cytometry, item: annexin V+/PI-", "setting": "3.2 µM, 24 h", "endpoint": "early apoptotic cells", "result": "2.9%"}
{"SMILES": "COc1cnc2cccc(N3CCc4c(cc(Cn5ccnc5C)cc4-c4cn(C)nc4C(F)(F)F)C3=O)c2c1", "cell line": "EBC-1", "test": "cell growth, inhibitor", "setting": "120 h", "endpoint": "EC50", "result": "> 30 µM"}
{"SMILES": "COc1cc(/C=C/C(=O)N2CCC=CC2=O)cc(OC)c1OC", "cell line": "MDA-MB-468", "test": "qRT-PCR, item: MnSOD", "setting": "30 µM, 6 h", "scale": "baseline: time zero", "endpoint": "mRNA expression", "result": "96.9 ± 15.3%"}
{"SMILES": "CC(C)NCC(O)c1ccc(O)c(O)c1 (centres unmarked)", "cell line": "mouse ventricular cardiomyocytes", "setting": "dose not given, 0.339 s", "endpoint": "sarcomere length", "result": "1.8 µm"}
{"SMILES": "C#C[C@@]1(O)[C@@H](CO)O[C@@H](n2ccc3c(N)ncnc32)[C@@H]1O", "cell line": "M14", "test": "SRB", "setting": "NCI-60 screen", "endpoint": "TGI", "result": "3 µM"}
{"SMILES": "COc1cc2nc(=S)n3[nH]c(CCn4nc(C)cc4C)nc3c2cc1OC", "cell line": "C127 LDR GFP reporter cells", "test": "silenced GFP reporter induction, activator, high-content imaging", "setting": "retest, two-run mean", "endpoint": "efficacy", "result": "111%"}
{"SMILES": "CCCCCCCCCc1ccc(OCCOCCOCCOCCOCCOCCOCCOCCOCCO)cc1", "cell line": "human iPSC-derived cardiomyocytes", "test": "MyBP-C/MYH ratio, plate-normalised SD score", "setting": "concentration not given, primary screen", "scale": "direction not given", "endpoint": "activity score", "result": 5.5}
{"SMILES": "Cn1cc(-c2ccc(-c3cncc(Cl)c3N3CCC4(CCNC4=O)CC3)cc2)cn1", "cell line": "COLO 205", "test": "gene expression, microarray, item: CALD1 mRNA", "setting": "concentration not given, 2 h", "scale": "baseline: untreated cells", "endpoint": "log2 fold change", "result": 1.77}
{"SMILES": "COc1cc(/C=C/c2ccc(O)cc2)cc(OC)c1", "cell line": "human iPSC-derived cardiomyocytes", "test": "MyBP-C/MYH ratio, plate-normalised SD score", "setting": "concentration not given, primary screen", "scale": "direction not given", "endpoint": "activity score", "result": 17.1}
{"SMILES": "Nc1cccc2c1CN(C1CCC(=O)NC1=O)C2=O (centres unmarked)", "cell line": "bone marrow CD138+ myeloma cells", "test": "XTT", "setting": "2 µM, mean of three patients", "endpoint": "viability", "result": "6%"}
{"SMILES": "CSCC[C@H](NC(=O)[C@H](Cc1ccc(OS(=O)(=O)O)cc1)NC(=O)[C@@H](N)CC(=O)O)C(=O)NCC(=O)N[C@@H](Cc1c[nH]c2ccccc12)C(=O)N[C@@H](CCSC)C(=O)N[C@@H](CC(=O)O)C(=O)N[C@@H](Cc1ccccc1)C(N)=O", "cell line": "HEK293T control virus", "test": "agonist, GloSensor cAMP", "setting": "80 nM, no receptor expressed", "scale": "higher = more cAMP", "endpoint": "cAMP accumulation", "result": "0.247 a.u."}
{"SMILES": "CCCCCCCCCCCCC[N+](C)(C)Cc1ccccc1", "cell line": "human iPSC-derived cardiomyocytes", "test": "MyBP-C/MYH ratio, plate-normalised SD score", "setting": "concentration not given, primary screen", "scale": "direction not given", "endpoint": "activity score", "result": 3.6}
{"SMILES": "CCOC(=O)CSc1nc(-c2ccc(Cl)cc2)c2c(NC(=O)c3ccccc3)nnc-2[nH]1", "cell line": "NCI60 cell panel", "test": "SRB", "setting": "10 µM", "endpoint": "mean growth percent", "result": "96.6%"}
{"SMILES": "C=C1C(=O)O[C@@H]2[C@@H]3C4(C=C[C@@]3(C)C3(C4)C(=O)O[C@@H]4[C@H]5C(C)=CC(=O)C5=C(C)C[C@H](O)[C@H]43)[C@@](C)(OC(C)=O)CC[C@@H]12 (some centres unmarked)", "cell line": "AML12 mouse hepatocytes", "test": "lipid accumulation, Nile Red staining", "setting": "maximum safe concentration, 24 h, together with: palmitic acid/oleic acid", "endpoint": "maximum inhibition", "result": "32.2 ± 2.58%"}
{"SMILES": "C[C@H](CCC(=O)O)[C@H]1CC[C@H]2[C@@H]3CC[C@@H]4C[C@H](O)CC[C@]4(C)[C@H]3C[C@H](O)[C@]12C", "cell line": "HIEC", "setting": "concentration not given, together with: lithocholic acid", "scale": "baseline: lithocholic acid alone", "endpoint": "P-gp expression", "result": "decreased"}
{"SMILES": "CC(=O)OCC(=O)[C@@]1(OC(C)=O)[C@@H](C)C[C@H]2[C@@H]3C[C@H](F)C4=CC(=O)C=C[C@]4(C)[C@@]3(F)[C@@H](O)C[C@@]21C", "cell line": "human iPSC-derived cardiomyocytes", "test": "MyBP-C/MYH ratio, plate-normalised SD score", "setting": "concentration not given, primary screen", "scale": "direction not given", "endpoint": "activity score", "result": 3.1}
{"SMILES": "C=Cc1c2[n-]c(c1C)/C=c1\\[n-]/c(c(C)c1C=C)=C\\c1[n-]c(c(CCC(=O)O)c1C)/C=c1\\[n-]c(c(C)c1CCC(=O)O)=C2.[Sn+4]", "cell line": "SH-SY5Y", "test": "RNA-seq, item: PLK2 mRNA", "setting": "5 µM, 5 h", "scale": "baseline: untreated cells", "endpoint": "fold change", "result": 1.66}
{"SMILES": "CCn1cc(-c2cc(Cn3ccoc3=N)cc3c2CCN([C@@H](C)c2cc(OC)ccn2)C3=O)c(C(F)(F)F)n1", "cell line": "HH", "test": "cell growth, inhibitor", "setting": "120 h", "endpoint": "EC50", "result": "0.0816 µM"}
{"SMILES": "CCCc1cc(=O)nc(SCC(=O)Nc2ccccc2)[nH]1", "cell line": "cells, COS-1, expressing proMMP-9", "test": "cell migration, 2D collagen dot migration", "setting": "50 µM, 18 h", "endpoint": "inhibition", "result": "12 ± 3%"}
{"SMILES": "Clc1nc(NCc2ccco2)c2[nH]cnc2n1", "cell line": "FD iPSC-derived cardiomyocytes", "test": "alternative splicing, RNA-seq, item: CRYZ exon chr1(-):74707102-74707204", "setting": "unit not given", "scale": "baseline: DMSO minus compound", "endpoint": "ΔPSI", "result": -0.325}
{"SMILES": "Cn1cc(Nc2nccc(-c3ccc4c(c3)CN(C3COC3)CC[C@H]4NC(=O)c3cn(C(C)(C)C)nn3)n2)cn1", "cell line": "mouse splenic B cells", "test": "item: apelin Endothelial signalling pathway", "setting": "30 mg/kg, IgD-activated in vivo", "scale": "baseline: vehicle, direction not given", "endpoint": "pathway activation z-score", "result": 2.14}
{"SMILES": "COc1ccc(Nc2nc3c(S(=O)(=O)c4ccccc4)nnn3c3ccc(Cl)cc23)cc1", "cell line": "C127 LDR GFP reporter cells", "test": "silenced GFP reporter induction, activator, high-content imaging", "setting": "retest, two-run mean", "endpoint": "efficacy", "result": "36%"}
{"SMILES": "CCCN1CCN(c2ccc3[nH]c(-c4ccc5[nH]c(-c6cc(OC)c(OC)c(OC)c6)nc5c4)nc3c2)CC1", "cell line": "M14", "test": "SRB", "setting": "10 µM, 48 h", "endpoint": "growth percent", "result": "63.9%"}
{"SMILES": "CC(=O)[C@H]1CC[C@H]2[C@@H]3CCC4=CC(=O)CC[C@]4(C)[C@H]3CC[C@]12C", "cell line": "human iPSC-derived cardiomyocytes", "test": "MyBP-C/MYH ratio, plate-normalised SD score", "setting": "concentration not given, primary screen", "scale": "direction not given", "endpoint": "activity score", "result": -3.6}
{"SMILES": "O=C(/C=C/C=C/C=C/C1CCCCC1)NC1=C[C@@](O)(/C=C/C=C/C=C/C(=O)NC2=C(O)CCC2=O)[C@@H]2O[C@@H]2C1=O", "cell line": "NCI-H446", "test": "cell growth, CellTiter-Glo", "setting": "78 h", "endpoint": "GI50", "result": "7.74 µM"}
{"SMILES": "Cc1ccc(C=NNC(=O)C2CC(=O)N(c3ccc(F)cc3F)C2)cc1 (centres unmarked)", "cell line": "A-375 and fibroblast spheroids", "test": "MTT", "setting": "10 µM, day 8", "endpoint": "viability reduction, up to", "result": "30% and 31.9%"}
{"note": "Some of these lines once more:"}
{"SMILES": "CCCCCCCCCCCCC[N+](C)(C)Cc1ccccc1", "cell line": "human iPSC-derived cardiomyocytes", "test": "MyBP-C/MYH ratio, plate-normalised SD score", "setting": "concentration not given, primary screen", "scale": "direction not given", "endpoint": "activity score", "result": 3.6}
{"SMILES": "CCOC(=O)CSc1nc(-c2ccc(Cl)cc2)c2c(NC(=O)c3ccccc3)nnc-2[nH]1", "cell line": "NCI60 cell panel", "test": "SRB", "setting": "10 µM", "endpoint": "mean growth percent", "result": "96.6%"}
